Published values pooled from the literature.
Compare with care: the assays were run in different laboratories. “And” joins repeats or separate records; there may be more than shown. ± gives the spread as reported.
Tumor necrosis factor receptor superfamily member 9/Nectin-4: Tumor necrosis factor receptor superfamily member 9/Nectin-4 (Homo sapiens, UniProt Q07011+Q96NY8)
UniProt Q07011, sequence (whole entry, looked up): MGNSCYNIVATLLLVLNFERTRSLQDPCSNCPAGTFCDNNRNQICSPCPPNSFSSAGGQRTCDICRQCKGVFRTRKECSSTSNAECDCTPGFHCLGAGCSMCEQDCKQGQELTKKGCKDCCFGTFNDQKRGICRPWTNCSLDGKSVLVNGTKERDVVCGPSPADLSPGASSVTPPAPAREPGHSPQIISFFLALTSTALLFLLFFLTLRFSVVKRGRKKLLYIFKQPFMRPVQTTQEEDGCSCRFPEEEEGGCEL
UniProt Q96NY8, sequence (whole entry, looked up): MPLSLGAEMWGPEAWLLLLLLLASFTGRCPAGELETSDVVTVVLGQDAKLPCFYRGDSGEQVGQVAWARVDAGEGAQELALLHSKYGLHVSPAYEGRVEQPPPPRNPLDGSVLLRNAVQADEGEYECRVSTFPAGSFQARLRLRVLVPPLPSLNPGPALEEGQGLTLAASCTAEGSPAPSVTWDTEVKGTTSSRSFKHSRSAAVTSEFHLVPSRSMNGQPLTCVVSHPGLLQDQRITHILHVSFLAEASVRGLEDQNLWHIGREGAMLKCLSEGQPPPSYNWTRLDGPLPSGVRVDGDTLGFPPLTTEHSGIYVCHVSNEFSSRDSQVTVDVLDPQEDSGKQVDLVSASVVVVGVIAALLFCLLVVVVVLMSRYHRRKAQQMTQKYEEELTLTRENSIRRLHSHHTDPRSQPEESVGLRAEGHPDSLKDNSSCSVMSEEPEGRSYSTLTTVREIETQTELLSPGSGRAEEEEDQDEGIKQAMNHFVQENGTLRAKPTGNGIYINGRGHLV
P2RX2: P2X purinoceptor 2 (P2RX2, Homo sapiens, UniProt Q9UBL9)
UniProt Q9UBL9, sequence (whole entry, looked up): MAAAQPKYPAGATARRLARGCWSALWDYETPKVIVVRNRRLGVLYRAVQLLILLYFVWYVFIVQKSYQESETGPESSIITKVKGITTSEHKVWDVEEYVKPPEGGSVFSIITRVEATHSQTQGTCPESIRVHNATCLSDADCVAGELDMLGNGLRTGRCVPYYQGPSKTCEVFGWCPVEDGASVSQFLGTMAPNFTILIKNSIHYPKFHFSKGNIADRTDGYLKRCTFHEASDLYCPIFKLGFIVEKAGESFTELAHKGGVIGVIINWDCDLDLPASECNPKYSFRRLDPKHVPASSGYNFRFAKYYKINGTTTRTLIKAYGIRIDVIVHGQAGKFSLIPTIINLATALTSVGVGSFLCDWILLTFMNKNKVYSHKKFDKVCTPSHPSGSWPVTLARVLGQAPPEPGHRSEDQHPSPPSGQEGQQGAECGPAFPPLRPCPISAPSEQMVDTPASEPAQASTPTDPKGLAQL
TRPV1: Transient receptor potential cation channel subfamily V member 1 (TRPV1, Homo sapiens, UniProt Q8NER1)
UniProt Q8NER1, sequence (whole entry, looked up): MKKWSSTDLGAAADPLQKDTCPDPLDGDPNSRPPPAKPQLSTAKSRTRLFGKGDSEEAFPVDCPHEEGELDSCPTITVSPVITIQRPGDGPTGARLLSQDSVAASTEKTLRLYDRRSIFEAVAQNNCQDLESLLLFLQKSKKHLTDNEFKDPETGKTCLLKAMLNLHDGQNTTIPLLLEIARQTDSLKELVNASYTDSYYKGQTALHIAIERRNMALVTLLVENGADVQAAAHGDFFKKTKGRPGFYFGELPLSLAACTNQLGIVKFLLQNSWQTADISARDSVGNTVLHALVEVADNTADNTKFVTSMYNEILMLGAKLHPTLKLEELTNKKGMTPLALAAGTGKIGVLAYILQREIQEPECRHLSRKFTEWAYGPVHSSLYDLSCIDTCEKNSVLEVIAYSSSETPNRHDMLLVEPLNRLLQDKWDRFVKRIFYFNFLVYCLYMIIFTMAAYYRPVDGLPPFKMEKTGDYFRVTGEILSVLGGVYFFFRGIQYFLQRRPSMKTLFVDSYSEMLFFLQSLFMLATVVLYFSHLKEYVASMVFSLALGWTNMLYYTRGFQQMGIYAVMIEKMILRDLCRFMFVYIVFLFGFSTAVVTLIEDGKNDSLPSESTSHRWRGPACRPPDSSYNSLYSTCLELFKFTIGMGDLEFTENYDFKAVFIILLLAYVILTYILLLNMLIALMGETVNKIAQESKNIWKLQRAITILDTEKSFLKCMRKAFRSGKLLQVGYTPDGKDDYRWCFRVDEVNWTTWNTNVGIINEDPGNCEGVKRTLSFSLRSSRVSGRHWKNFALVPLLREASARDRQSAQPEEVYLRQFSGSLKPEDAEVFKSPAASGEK
NR4A1: Nuclear receptor subfamily 4 group A member 1 (NR4A1, Homo sapiens, UniProt P22736)
UniProt P22736, sequence (whole entry, looked up): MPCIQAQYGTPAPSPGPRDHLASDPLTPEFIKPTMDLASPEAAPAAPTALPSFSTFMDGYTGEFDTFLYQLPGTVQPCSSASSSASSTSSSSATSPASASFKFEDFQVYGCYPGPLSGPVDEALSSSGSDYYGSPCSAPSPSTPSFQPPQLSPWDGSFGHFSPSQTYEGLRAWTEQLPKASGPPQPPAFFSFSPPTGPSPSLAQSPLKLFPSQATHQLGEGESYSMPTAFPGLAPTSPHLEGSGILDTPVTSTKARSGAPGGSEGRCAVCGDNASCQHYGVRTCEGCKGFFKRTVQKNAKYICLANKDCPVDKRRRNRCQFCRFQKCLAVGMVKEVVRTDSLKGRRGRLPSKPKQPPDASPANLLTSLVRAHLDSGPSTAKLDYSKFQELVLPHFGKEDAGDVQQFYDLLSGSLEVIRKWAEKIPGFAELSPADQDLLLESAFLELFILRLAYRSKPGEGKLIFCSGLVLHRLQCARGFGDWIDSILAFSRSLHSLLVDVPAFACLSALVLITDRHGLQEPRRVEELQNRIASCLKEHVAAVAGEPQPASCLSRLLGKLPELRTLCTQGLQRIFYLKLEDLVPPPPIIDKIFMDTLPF
T1: ssDNA, aptamer; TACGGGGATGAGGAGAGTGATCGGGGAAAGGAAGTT
T2: RNA, 2'-deoxy at 37-40 (Fusobacterium nucleatum); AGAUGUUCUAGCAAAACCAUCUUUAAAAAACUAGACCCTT
UniProt Q16774, sequence (whole entry, unmodified, looked up): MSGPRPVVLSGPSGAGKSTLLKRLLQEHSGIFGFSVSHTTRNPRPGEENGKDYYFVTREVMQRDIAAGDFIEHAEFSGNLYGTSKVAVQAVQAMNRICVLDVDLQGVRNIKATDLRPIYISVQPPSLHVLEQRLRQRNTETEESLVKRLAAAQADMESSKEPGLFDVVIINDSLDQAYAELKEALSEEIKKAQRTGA
UniProt P11388, sequence (whole entry, looked up): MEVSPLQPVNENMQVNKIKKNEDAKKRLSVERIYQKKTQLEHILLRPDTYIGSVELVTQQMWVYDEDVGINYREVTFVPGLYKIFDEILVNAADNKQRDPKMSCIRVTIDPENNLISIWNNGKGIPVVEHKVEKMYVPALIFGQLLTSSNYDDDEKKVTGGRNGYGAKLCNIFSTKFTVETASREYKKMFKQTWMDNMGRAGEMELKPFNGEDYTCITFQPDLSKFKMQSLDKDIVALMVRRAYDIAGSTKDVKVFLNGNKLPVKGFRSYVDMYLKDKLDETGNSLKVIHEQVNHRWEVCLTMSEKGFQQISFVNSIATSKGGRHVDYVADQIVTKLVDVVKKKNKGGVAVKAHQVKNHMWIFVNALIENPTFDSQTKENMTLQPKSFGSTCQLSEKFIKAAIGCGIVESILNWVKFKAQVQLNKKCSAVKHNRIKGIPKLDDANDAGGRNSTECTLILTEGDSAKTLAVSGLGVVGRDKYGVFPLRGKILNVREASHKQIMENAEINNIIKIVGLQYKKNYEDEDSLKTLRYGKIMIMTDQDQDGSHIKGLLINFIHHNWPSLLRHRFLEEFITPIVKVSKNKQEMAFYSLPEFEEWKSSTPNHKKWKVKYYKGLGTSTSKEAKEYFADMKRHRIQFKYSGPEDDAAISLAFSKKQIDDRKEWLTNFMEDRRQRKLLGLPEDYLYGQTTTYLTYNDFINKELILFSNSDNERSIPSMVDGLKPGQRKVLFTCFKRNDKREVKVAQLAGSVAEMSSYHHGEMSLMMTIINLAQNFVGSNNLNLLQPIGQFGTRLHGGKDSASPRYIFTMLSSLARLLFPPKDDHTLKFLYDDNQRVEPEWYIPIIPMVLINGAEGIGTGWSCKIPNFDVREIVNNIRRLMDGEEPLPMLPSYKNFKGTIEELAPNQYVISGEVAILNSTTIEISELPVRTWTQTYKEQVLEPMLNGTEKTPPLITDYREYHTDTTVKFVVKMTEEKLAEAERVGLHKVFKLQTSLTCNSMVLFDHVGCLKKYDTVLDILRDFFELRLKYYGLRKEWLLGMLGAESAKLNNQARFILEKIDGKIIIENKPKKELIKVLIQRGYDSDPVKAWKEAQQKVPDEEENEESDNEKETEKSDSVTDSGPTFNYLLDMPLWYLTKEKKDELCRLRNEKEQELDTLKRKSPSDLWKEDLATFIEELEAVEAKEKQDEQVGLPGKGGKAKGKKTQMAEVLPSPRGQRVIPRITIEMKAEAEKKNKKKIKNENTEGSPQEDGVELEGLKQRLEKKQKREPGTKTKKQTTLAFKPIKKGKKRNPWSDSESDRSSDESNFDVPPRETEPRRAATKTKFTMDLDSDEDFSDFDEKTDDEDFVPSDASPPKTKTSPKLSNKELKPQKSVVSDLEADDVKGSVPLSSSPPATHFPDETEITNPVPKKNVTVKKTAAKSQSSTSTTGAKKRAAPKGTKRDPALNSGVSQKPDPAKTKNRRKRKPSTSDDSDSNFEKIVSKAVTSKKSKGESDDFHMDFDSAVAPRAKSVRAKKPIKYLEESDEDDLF
UniProt P48729, sequence (whole entry, looked up): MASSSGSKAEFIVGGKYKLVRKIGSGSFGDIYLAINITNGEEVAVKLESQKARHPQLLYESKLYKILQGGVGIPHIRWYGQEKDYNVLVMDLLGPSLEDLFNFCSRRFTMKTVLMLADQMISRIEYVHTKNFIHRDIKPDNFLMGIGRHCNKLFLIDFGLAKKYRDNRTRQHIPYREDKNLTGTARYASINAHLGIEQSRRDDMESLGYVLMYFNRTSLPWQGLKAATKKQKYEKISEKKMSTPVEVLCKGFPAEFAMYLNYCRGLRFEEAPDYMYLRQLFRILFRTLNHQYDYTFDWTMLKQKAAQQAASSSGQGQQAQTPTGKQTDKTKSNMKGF
UniProt Q9KCC6, sequence (whole entry, looked up): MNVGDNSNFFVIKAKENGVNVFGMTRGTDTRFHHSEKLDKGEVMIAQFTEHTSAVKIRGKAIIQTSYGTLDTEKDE
UniProt P02754, sequence (whole entry, looked up): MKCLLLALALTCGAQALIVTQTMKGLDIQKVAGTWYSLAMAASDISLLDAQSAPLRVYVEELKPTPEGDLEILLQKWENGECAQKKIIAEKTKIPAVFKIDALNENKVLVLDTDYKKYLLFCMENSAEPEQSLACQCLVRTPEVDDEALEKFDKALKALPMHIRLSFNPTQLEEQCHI

O=C(O)c1ccc(Nc2ncc3c(n2)-c2ccc(Cl)cc2C(c2c(F)cccc2F)=NC3)cc1 — remaining activity (human CK2(h); kinase activity; 1 µM): 108%
CCCC[C@@H]1NC(=O)[C@H](Cc2ccc(O)cc2)NC(=O)[C@@H]2CCCN2C(=O)[C@H](CC(=O)O)NC(=O)[C@H](C)NC(=O)[C@H](Cc2ccccc2)NC(=O)[C@@H]2CSCCC(=O)N3CN(CN(C3)C(=O)CCSC[C@H](NC(C)=O)C(=O)N[C@@H](CC(C)(C)C)C(=O)N3CCC[C@H]3C(=O)N[C@@H](CCC(=O)O)C(=O)N[C@H](CCCCNC(=O)CCc3cn(CCOCCOCCOCCN(CCOCCOCCOCCC(=O)N[C@H]4CSCCC(=O)N5CN6CN(C5)C(=O)CCSC[C@H](NC(=O)[C@@H](CC(=O)O)NC(=O)[C@H](Cc5cccc7ccccc57)NC(=O)[C@@H]5CCCN5C4=O)C(=O)N[C@@H](CCSC)C(=O)N[C@@H](CCCCNC(=N)N)C(=O)N[C@@H](CC(=O)O)C(=O)N[C@@H](Cc4c[nH]c5ccccc45)C(=O)N[C@@H](CO)C(=O)N[C@@H]([C@@H](C)O)C(=O)N4CCC[C@H]4C(=O)N4C[C@H](O)C[C@H]4C(=O)N[C@@H](Cc4c[nH]c5ccccc45)C(=O)N[C@H](C(N)=O)CSCCC6=O)CCOCCOCCOCCn4cc(CCC(=O)NCCCC[C@H]5NC(=O)[C@H](CCC(=O)O)NC(=O)[C@@H]6CCCN6C(=O)[C@H](CC(C)(C)C)NC(=O)[C@@H](NC(C)=O)CSCCC(=O)N6CN7CN(C6)C(=O)CCSC[C@H](NC(=O)[C@H](Cc6ccc(O)cc6)NC(=O)[C@@H]6CCCN6C5=O)C(=O)N[C@@H](Cc5ccccc5)C(=O)N[C@@H](C)C(=O)N[C@@H](CC(=O)O)C(=O)N5CCC[C@H]5C(=O)N[C@@H](Cc5ccc(O)cc5)C(=O)N[C@@H](CCCC)C(=O)N[C@H](C(N)=O)CSCCC7=O)nn4)nn3)C(=O)N3CCC[C@H]3C(=O)N[C@@H](Cc3ccc(O)cc3)C(=O)N2)C(=O)CCSC[C@@H](C(N)=O)NC1=O — Emax (Tumor necrosis factor receptor superfamily member 9/Nectin-4; reporter gene, agonist; HT-1376 coculture with reporter cells; baseline: background): 70 fold
CCCc1ccc(S(=O)(=O)Oc2ccccc2NC(=O)c2ccc3ncccc3c2)cc1 — fluorescence increase (P2RX2; calcium mobilization; MCF7 stably transfected; 100 µM, added: ATP 100 µM): 77.5 ± 1.45%
c1coc(-c2n[nH]cc2-c2ccnc3ccccc23)c1 — log2 fold change (Mitogen-activated protein kinase HOG1 (HOG1, Candida albicans, UniProt Q92207); kinase binding, MIB/MS competition; Candida albicans lysate; 10 µM; baseline: DMSO, negative = stronger binding): -0.18
COc1ccccc1-c1n[nH]c2nc(N[C@H]3CC[C@H](NS(=O)(=O)CCCOCCOCCNC(=O)OC(C)(C)C)CC3)ncc12 — log2 SILAC ratio heavy/light (Leishmania donovani MPK (LinJ.36.6760/LinJ.30.0370); resin binding competition; promastigote lysate; 10 µM; baseline: DMSO): 1.96
N[C@@H](Cc1c[nH]c2ccccc12)C(=O)O — binding stoichiometry (Transcription attenuation protein MtrB (mtrB, Halalkalibacterium halodurans, UniProt Q9KCC6); isothermal titration calorimetry; concentration not given, 25 °C, site 1 two-site model): 0.7 ± 0.1
O=c1nc(SCc2cc(F)cc(C(F)(F)F)c2)nc(SCc2ccc3sccc3c2)[nH]1 — ATP hydrolysis rate (TOP2A (Homo sapiens, UniProt P11388); ATPase activity; 1.95 µM, added: ATP 1 mM): 2.89 µM/min and 2.26 µM/min
Nc1nnc(-c2ccccc2O)cc1N1CCN(Cc2ccc(OCCOCCNc3cccc4c3C(=O)N(C3CCC(=O)NC3=O)C4=O)c(F)c2)CC1 (centres unmarked) — protein level (Protein polybromo-1 (PBRM1, Homo sapiens, UniProt Q86U86); TMT proteomics; SMARCA4 wild-type cells; 1 µM, 96 h): no effect
CC(C)=CCC/C(C)=C/C=C/C(C)=C/C=C/C(C)=C/C=C/C=C(C)/C=C/C=C(C)/C=C/C=C(\C)CCC=C(C)C — Stern-Volmer quenching constant (Beta-lactoglobulin (LGB, Bos taurus, UniProt P02754); fluorescence quenching; 298 K): 6190 ± 2020 L/mol
COc1cc(CNC(=O)CCCC/C=C/C(C)C)ccc1O — closed time constant (TRPV1; channel gating, single-channel inside-out patch; 100 nM, component 2 of four): 1.42 ms
c1ccc(OC[C@@H]2CN(CCN3CCc4ccccc43)CCO2)cc1 — inhibition (HTR2B (Homo sapiens, UniProt P41595); radioligand binding; concentration not given, added: [3H]LSD): 70.5%
Nc1nnc(-c2cccc(Cl)c2Cl)c(N)n1 — fast onset component (SCN5A (Homo sapiens, UniProt Q14524); sodium current block kinetics, patch clamp; 280 µM, holding potential -120 mV): 92%
CCN1CCN(c2cc(N3CCN(CC)CC3)nc(NCCNc3ccnc4cc(Cl)ccc34)n2)CC1 — activation (NR4A1; reporter gene, Gal4 hybrid reporter; 20 µM; baseline: vehicle): 2.37 fold
CCCC(CCC)c1nc2c(Nc3ccc(C#CCCCCCCCCN)cc3)nc3ccccc3c2[nH]1 — off-target affinity (HTR5A (Homo sapiens, UniProt P47898); PDSP screening): inactive
Nc1ncnc2c1ncn2[C@@H]1O[C@H](COP(=O)(O)O)[C@@H](O)[C@H]1O — Kd (T1, ssDNA, aptamer; molecular beacon fluorescence quenching): 96 µM
Nc1ncnc2c1ncn2[C@@H]1O[C@H](COP(=O)(O)CP(=O)(O)OP(=O)(O)O)[C@@H](O)[C@H]1O — calcium influx (P2X purinoceptor 1 (P2RX1, Homo sapiens, UniProt P51575, F188L); calcium influx; 3.16 nM; baseline: ionomycin response): 0%
C=C1C(=O)O[C@@H]2C[C@@]3(C)CCCC(=C)[C@@H]3C[C@H]12 — activation (NR4A1; reporter gene, Gal4 hybrid reporter; 10 µM; baseline: vehicle): 0.73 fold
Nc1ccc(Cc2nnc(NS(=O)(=O)c3ccc(N)cc3)s2)cc1 — Kii (Glutathione hydrolase 1 proenzyme, without transmembrane domain (Homo sapiens, UniProt P19440); GSH hydrolysis, uncompetitive inhibitor; 37 °C, binds gamma-glutamyl enzyme, added: GSH 5-20 µM): 102 ± 16 µM
C#CCNS(=O)(=O)c1ccc(CCN(Cc2cc(Cl)ccc2OCCC)C(=O)c2ccc(F)cc2)cc1 — fold potency (Nlrp3 (Mus musculus, UniProt Q8R4B8); IL-1β release; J774A.1; added: LPS, ATP; baseline: -label): 2 fold
[O-][S+]1CCCCS1 (centres unmarked) — SOD1 dimer fraction (SOD1 (Homo sapiens, UniProt P00441, G94A); LC-MS; human whole blood; 1000 µM, 1 h, 37 °C): 77.3%
CCCC[C@@H]1NC(=O)[C@H](Cc2ccc(O)cc2)NC(=O)[C@@H]2CCCN2C(=O)[C@H](CC(=O)O)NC(=O)[C@H](C)NC(=O)[C@H](Cc2ccccc2)NC(=O)[C@@H]2CSCCC(=O)N3CN(CN(C3)C(=O)CCSC[C@@H](C(=O)N[C@@H](CNC(=O)CCc3cn(CCOCCOCCOCCN(CCOCCOCCOCCC(=O)N[C@H]4CSCCC(=O)N5CN6CN(C5)C(=O)CCSC[C@H](NC(=O)[C@@H](CC(=O)O)NC(=O)[C@H](Cc5cccc7ccccc57)NC(=O)[C@@H]5CCCN5C4=O)C(=O)N[C@@H](CCSC)C(=O)N[C@@H](CCCCNC(=N)N)C(=O)N[C@@H](CC(=O)O)C(=O)N[C@@H](Cc4c[nH]c5ccccc45)C(=O)N[C@@H](CO)C(=O)N[C@@H]([C@@H](C)O)C(=O)N4CCC[C@H]4C(=O)N4C[C@H](O)C[C@H]4C(=O)N[C@@H](Cc4c[nH]c5ccccc45)C(=O)N[C@H](C(N)=O)CSCCC6=O)CCOCCOCCOCCn4cc(CCC(=O)NC[C@H](NC(=O)[C@@H]5CSCCC(=O)N6CN7CN(C6)C(=O)CCSC[C@H](NC(=O)[C@H](Cc6ccc(O)cc6)NC(=O)[C@@H]6CCCN6C(=O)[C@@H](C)NC(=O)[C@H](CCC(=O)O)NC(=O)[C@@H]6CCCN6C(=O)[C@H](CC(C)(C)C)NC(=O)[C@@H](NC(C)=O)CSCCC7=O)C(=O)N[C@@H](Cc6ccccc6)C(=O)N[C@@H](C)C(=O)N[C@@H](CC(=O)O)C(=O)N6CCC[C@H]6C(=O)N[C@@H](Cc6ccc(O)cc6)C(=O)N[C@@H](CCCC)C(=O)N5)C(N)=O)nn4)nn3)C(N)=O)NC1=O)C(=O)CCSC[C@H](NC(C)=O)C(=O)N[C@@H](CC(C)(C)C)C(=O)N1CCC[C@H]1C(=O)N[C@@H](CCC(=O)O)C(=O)N[C@H](C)C(=O)N1CCC[C@H]1C(=O)N[C@@H](Cc1ccc(O)cc1)C(=O)N2 — Emax (Tumor necrosis factor receptor superfamily member 9/Nectin-4; reporter gene, agonist; HT-1376 coculture with reporter cells; baseline: background): 59 fold
Cc1cccc(/C=C/C(=O)Nc2cc(-c3ccnc(N4CCOCC4)c3)ccn2)c1 — binding response (NR4A1; SPR; 10.0 µM): 36.4 RU
Nc1nc2c(ncn2[C@@H]2O[C@H](COP(=O)(O)O)[C@@H](O)[C@H]2O)c(=O)[nH]1 — ΔH of binding (GUK1 (Homo sapiens, UniProt Q16774); ITC; concentration not given, added: 150 mM KCl): -11.8 kcal/mol and -10.4 kcal/mol and -10.6 kcal/mol
C[C@H]1O[C@@H](O[C@H]2CC[C@@]3(C)[C@@H](CC[C@]4(C)[C@@H]3C=CC3=C5CC(C)(C)CC[C@]5(CO)[C@@H](O)C[C@]34C)[C@]2(C)CO)[C@H](O)[C@@H](O[C@@H]2O[C@H](CO)[C@@H](O)[C@H](O)[C@H]2O)[C@H]1O — MST normalised fluorescence (SIRT1 (Homo sapiens, UniProt Q96EB6); binding, microscale thermophoresis; 185 nM): 884 a.u.
O=c1ccn([C@@H]2O[C@H](COP(=O)(O)OP(=O)(O)OP(=O)(O)O)[C@@H](O)[C@H]2O)c(=O)[nH]1 — nucleotide addition rate (DNA-directed RNA polymerase subunit beta' / DNA-directed RNA polymerase subunit beta (rpoC/rpoB, Escherichia coli, UniProt P0A8T7+P0A8V2); RNA extension, rapid quench-flow; Escherichia coli, elongation complex, 6-MI template; 200 µM, 25 °C, fast complex fraction): 30 ± 1 s⁻¹
COc1cc(CNC(=O)CCCC/C=C/C(C)C)ccc1O — calcium response (TRPV1; channel activation, FLIPR calcium; HEK293T; 0.0823 µM; higher = more activation): 7.59 a.u. and 8.7 a.u. and 8.21 a.u. and 8.62 a.u.
Cc1cc(-c2cccc(-n3cc(COC(=O)[C@]4(C)C=C(C(=O)OC(C)(C)C)C(=O)CC4)nn3)c2)c(C)c2c1CNCC2 — fraction bound (MAPK8 (Homo sapiens, UniProt P45983); D-peptide binding, inhibitor, FP peptide displacement; 3.125 µM; lower is stronger displacement): 0.768
C[C@@H](c1ccc(-n2cnc3c(N)ncnc32)cc1)N1CCc2nn(C)c(Cc3ccccc3)c2C1=O — remaining binding (Non-receptor tyrosine-protein kinase TYK2, JH1 domain (TYK2, Homo sapiens, UniProt P29597); KINOMEscan; 0.1 µM; baseline: DMSO control): 98%
CC1(C)CC2(C)OC(=O)NC2(C)c2ccccc21 (centres unmarked) — log fold enrichment (ATP-dependent RNA helicase DDX1 (Homo sapiens, UniProt Q92499); binding, affinity selection mass spectrometry; baseline: other proteins in batch): 0.0133
Cc1ccc(C(=O)Nc2ccc3c(c2)C(=O)N(C2CCC(=O)NC2=O)C3=O)cc1 (centres unmarked) — degradation rate constant (Cereblon/Casein kinase I alpha (CSNK1A1/CRBN, Homo sapiens, UniProt P48729+Q96SW2); degrader, live-cell HiBiT kinetic; HEK293 LgBiT; 10 µM): 0.61 h⁻¹
O=S(=O)(O)C1CCNCC1 — normalised MST signal (SLC6A6 (Homo sapiens, UniProt P31641, G62A); binding, microscale thermophoresis; 500 µM, room temperature, added: 50 nM labelled protein; higher = more binding): -0.00405
CCN1CCC[C@H]1CNC(=O)c1c(O)c(Cl)cc(Cl)c1OC — log2 fold change (Probable G-protein coupled receptor 63 (GPR63, Homo sapiens, UniProt Q9BZJ6); β-arrestin recruitment, TANGO luminescence, measured: GPR63; concentration not given; baseline: basal luminescence): 0.705
CCOC(=O)c1c(NC(=O)CNC(C)C)sc2c1CCCCC2 — fast inactivation time constant (SCN8A (Homo sapiens, UniProt Q9UQD0); sodium current, whole-cell voltage clamp; HEK cells; 20 µM): 1 ± 0.1 ms
Nc1nc(N)c2[nH]cnc2n1 — Kd (T2, RNA, 2'-deoxy at 37-40 (Fusobacterium nucleatum); MST; apparent): 610 µM
Nc1ncnc2c1ncn2[C@@H]1O[C@H](COP(=O)(O)OP(=O)(O)OP(=O)(O)O)[C@@H](O)[C@H]1O — Hill coefficient (P2RX2; channel activation, agonist; transfected HEK293 cells; physiological divalent cations, added: 2 mM Ca2+ and 0.5 mM Mg2+): 1.3 ± 0.2

A few entries again:
COc1ccccc1-c1n[nH]c2nc(N[C@H]3CC[C@H](NS(=O)(=O)CCCOCCOCCNC(=O)OC(C)(C)C)CC3)ncc12 — log2 SILAC ratio heavy/light (Leishmania donovani MPK (LinJ.36.6760/LinJ.30.0370); resin binding competition; promastigote lysate; 10 µM; baseline: DMSO): 1.96
N[C@@H](Cc1c[nH]c2ccccc12)C(=O)O — binding stoichiometry (Transcription attenuation protein MtrB (mtrB, Halalkalibacterium halodurans, UniProt Q9KCC6); isothermal titration calorimetry; concentration not given, 25 °C, site 1 two-site model): 0.7 ± 0.1
O=c1nc(SCc2cc(F)cc(C(F)(F)F)c2)nc(SCc2ccc3sccc3c2)[nH]1 — ATP hydrolysis rate (TOP2A (Homo sapiens, UniProt P11388); ATPase activity; 1.95 µM, added: ATP 1 mM): 2.89 µM/min and 2.26 µM/min
